Experimental data of several laboratories.
Parts stem from different laboratories: compare values within a part only.

Study 1 — method: competition protein-binding microarray; molecule type: double-stranded DNA, one strand shown; sample: in vitro; tested at: 2 µM; with: Pho4 competitor, 0.05 µM; direction: higher = stronger binding; constant ends, left off below: … GTCTTGATTCGCTTGACGCTGCTG
Target: Centromere-binding protein 1, full length, His-tagged (CBF1, Saccharomyces cerevisiae, UniProt P17106, residues 1-351)
UniProt P17106, sequence (whole entry, looked up): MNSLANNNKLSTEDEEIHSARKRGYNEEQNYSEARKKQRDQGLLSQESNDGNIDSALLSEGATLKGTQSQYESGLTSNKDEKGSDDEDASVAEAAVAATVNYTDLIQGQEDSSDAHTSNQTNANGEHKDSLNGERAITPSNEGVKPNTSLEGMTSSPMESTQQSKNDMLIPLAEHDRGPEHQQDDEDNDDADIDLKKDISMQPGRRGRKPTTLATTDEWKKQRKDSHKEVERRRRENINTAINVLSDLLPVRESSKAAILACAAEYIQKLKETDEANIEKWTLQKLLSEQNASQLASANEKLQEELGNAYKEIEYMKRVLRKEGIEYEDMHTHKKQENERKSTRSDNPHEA
Notes: whole 60-bp probe, lowest competitor level
Sequence	fluorescence intensity [a.u.]
CATACCCAACCTTGCCGTGTGGGTGAAGATATTTGT	56.4
GTCTTGTCTCATTTTCACGTGCGATTCCCCACTTCA	583
TGCGGCCATAAGCGTCACAGGCCACTCACTGGGAGG	81.2
CGGGGTTAAGTTTTTCACGTGGTCTGCTTGCAGCAG	1050
CGTCCTAGCGATTGAAGAGTGGGTGCCATGAGGAAG	68.4
CATCATGCAGGTCCACACGTGATGGGAAGGGCAACG	2250
AGAACCGTTAAATTCCCCGTGCTTTCTCGCATTAAG	114
CGATCTTGATGTTGTCCCGTGCCAGGTTGTATAATA	243

Study 2 — method: protein-binding microarray; molecule type: double-stranded DNA, one strand shown; sample: in vitro; tested at: 250 nM; notes: 60-bp whole probe; with: salmon DNA 0.4 mg/ml; relative to: random background probes; direction: higher = stronger binding; constant ends, left off below: GCCTAGCAC … GTCTTGATTCGCTTGACGCTGCTG
Target: Interferon regulatory factor 5, full length, phosphomimetic (IRF5, Homo sapiens, UniProt Q13568-2, residues 1-514, K96S/S451D/S453D/S456D/S462D)
Sequence	log fluorescence
AATGCCCTCGGTTTACAGGGGTGCTAG	0.0954 z-score
TTAGATATCGGGATTGGATTAGTGCTA	1.64 z-score
TCAGGTATGCTCATGACACTGTGCTAG	-0.139 z-score
TTAGGACTGGGGTATCGGTTTGTGCTA	2.04 z-score
TCATCTTTTATGCTCTTACTGTGCTAG	0.772 z-score
GCCGGTATCGGGACTGGGGACGTGCTA	1.45 z-score

Study 3 — method: universal PBM; molecule type: double-stranded DNA, one strand shown; sample: in vitro; tested at: 600 nM; direction: higher = stronger binding
Target: Sal-like protein 4, full length isoform A (SALL4, Homo sapiens, UniProt Q9UJQ4, residues 1-1053)
UniProt Q9UJQ4, sequence (whole entry, looked up): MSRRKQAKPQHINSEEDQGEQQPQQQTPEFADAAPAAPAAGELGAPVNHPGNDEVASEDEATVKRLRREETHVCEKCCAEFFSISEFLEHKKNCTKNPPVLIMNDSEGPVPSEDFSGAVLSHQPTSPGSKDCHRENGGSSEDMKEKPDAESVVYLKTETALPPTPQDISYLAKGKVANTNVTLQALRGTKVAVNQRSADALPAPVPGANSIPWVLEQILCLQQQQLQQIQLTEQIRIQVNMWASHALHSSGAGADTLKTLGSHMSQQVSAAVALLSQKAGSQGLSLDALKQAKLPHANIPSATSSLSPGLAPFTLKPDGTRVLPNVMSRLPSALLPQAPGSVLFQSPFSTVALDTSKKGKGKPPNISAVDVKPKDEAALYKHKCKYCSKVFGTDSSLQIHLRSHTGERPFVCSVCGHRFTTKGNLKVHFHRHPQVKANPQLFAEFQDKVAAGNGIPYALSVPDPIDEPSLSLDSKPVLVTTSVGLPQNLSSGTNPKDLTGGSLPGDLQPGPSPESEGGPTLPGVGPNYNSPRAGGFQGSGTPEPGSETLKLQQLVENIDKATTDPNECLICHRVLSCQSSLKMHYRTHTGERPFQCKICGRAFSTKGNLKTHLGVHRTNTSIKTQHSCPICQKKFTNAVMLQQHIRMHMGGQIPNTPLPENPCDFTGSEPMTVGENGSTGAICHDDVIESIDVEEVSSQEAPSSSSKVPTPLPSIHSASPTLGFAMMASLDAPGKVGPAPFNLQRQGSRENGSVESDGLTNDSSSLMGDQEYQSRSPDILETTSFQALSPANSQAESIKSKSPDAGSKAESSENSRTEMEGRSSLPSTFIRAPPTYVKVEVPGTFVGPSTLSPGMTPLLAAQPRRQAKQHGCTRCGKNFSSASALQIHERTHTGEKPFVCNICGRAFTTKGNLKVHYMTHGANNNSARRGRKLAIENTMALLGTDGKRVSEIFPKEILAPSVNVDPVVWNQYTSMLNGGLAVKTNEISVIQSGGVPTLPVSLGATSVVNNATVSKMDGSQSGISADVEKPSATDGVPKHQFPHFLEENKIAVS
Notes: 8-mer, flanks averaged, mean of replicates
Sequence	E-score
ACGCAGAT	-0.0283
TTTATAAA	0.375
TACGTCTA	0.118
CACTACCG	-0.123
GGATAAAC	0.199

Other studies, line by line
Substance	target	assay	system	setting	scale	endpoint	result
PhoQ, residues 284 288 289 292 302 303 TLMATV	PhoP, residues 12 14 15 18 19 SMASL (Escherichia coli, UniProt P23836)	Sort-seq, measured: YFP reporter	E. coli	PhoQ-PhoP variant library, with: 10 µM Mg2+	relative to: high Mg2+ state, higher = stronger signaling	fold induction	21.1

Repeated from above (study 1):
Sequence	fluorescence intensity [a.u.]
CATACCCAACCTTGCCGTGTGGGTGAAGATATTTGT	56.4
GTCTTGTCTCATTTTCACGTGCGATTCCCCACTTCA	583
TGCGGCCATAAGCGTCACAGGCCACTCACTGGGAGG	81.2
